# Measurements from different studies.
# A part holds a random share of what one study measured.

# Series 1 — technique: universal PBM; form: double-stranded DNA, one strand shown; matrix: in vitro; tested at: not given; direction: higher = stronger binding
# Target: Sal-like protein 4, full length isoform B (SALL4, Homo sapiens, UniProt Q9UJQ4-2, residues 1-616)
# Setting: 8-mer, flanks averaged, mean of replicates
Oligonucleotide,E-score
CGACCGCG,-0.296
ACTCACAG,0.00829
AACAGCGA,-0.152
CCGGGGCG,-0.397
TGAGACCA,-0.0752
CATTGAGA,0.0814
AAGTATCG,0.0793
ATTGGCGC,-0.0162
ATCCCCAT,-0.0901
CTCCGATA,0.0685
AGGGTCGG,-0.251
GGGCGCGA,-0.306
AAGCATAG,-0.0481
AAGTATTA,0.312
TCGGTACA,0.0533
GCAACGAA,0.0155
GAGGCCGC,-0.342
CCTCATCG,-0.0522
GCTGTGAA,0.0138
AAGGATTA,0.222
TAGCAAAA,0.224
CAAGTAGC,-0.0967
ACCCATCA,-0.0112
AGGTTTAA,0.139

# Series 2 — technique: RNA Bind-n-Seq; form: RNA; matrix: in vitro; tested at: 365 nM; relative to: no-protein control; direction: higher = stronger binding
# Target: RNA binding protein fox-1 homolog 2, RRM domain, GST-SBP tag (RBFOX2, Homo sapiens, UniProt O43251-10, residues 100-194)
# Setting: natural RNA segment, single round, ends assumed
# Shared flanks, not repeated: GGGAGUUCUACAGUCCGACGAUC … UGGAAUUCUCGGGUGCCAA
# Construct (chain): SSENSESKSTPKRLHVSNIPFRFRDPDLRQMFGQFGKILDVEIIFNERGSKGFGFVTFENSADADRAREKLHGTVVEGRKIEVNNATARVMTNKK
Oligonucleotide,RBNS enrichment (R)
UUUCUAUGUAUAAUGUUUUAUACACUUUUUAACUGGUUGCACUACCCAUGAGGAAUUCGUGGAAUGGCUACUGCUGACUAACAUGAUGCACAUAACCAAAUGGGGGCCAA,0.516
AUGACAGGACCUGGAAUGUACUGGCUGGGGUAGGCCUCAGUGAGUCGGCCGGUCAGGGCCCGCAGCCUCGCCCCAUCCACUCCGGUGCCUCCAUUUAGCUGGCCAAUCAG,0.36
CCUUGCACUACCAGAAGAUUCAUACACUUUUGAGACUCCAGUGAGACGCUGUUUUCACCCCUUCCUCCUCCUAGCCUCUCUCCCAAAAAGUAAAACACAAUGCUGAAGAA,0.88
GCUUUAAAGGUGGUAGUGAUUUUUAUUUUGGAAGAAUCAUGUUACCUUUUUGUUAAAUAAAAUUUGUACUCAAAUGAUGAUGUCACUGUUUUUAAUGUGCAGGUAUUGAA,0.556
CAUUUCUUUUAUUGUUUUAUGUGCCAAACCACGAAGUGCAUUGGGCUUCAAUCUCUGAACACUGUAGACCCAUUAGAAGACUGUUCCGAUUGUUACAAAUUGUAGUGCCU,0.386
CCAGGUCACGUGUAGGACGUGCUUAUCCAGUUUUUUCCCCCUUUACCUGCAUAGUUGCUACAUACAUGUUUCUCACUGUAAAAGGCUGCCGCUGGGUGGCAGAAGCCAAA,0.469
UCAGAUGCAGGUGGUACCCACACGACCAGAGUGAUCAAUAGGAAUUUUCUUGGUGUUCCUUUCUUCCAGCACAGUGCAAGAUAGAGUUGCUGUUGAUGCCAUAUGUUUAG,0.914
GAGAAAGGAAAUGGGCUAUUGCCAAAGGACAGGUGGCGUUAGAUGGCUGUGAGGGUGACCUGGUGAGGGAAGGGUUGGAAUGAGCUGCUGCAGGAGGCCAAGGGAUGCCU,2.24

# Series 3 — technique: protein binding microarray; form: double-stranded DNA, one strand shown; matrix: in vitro; tested at: not given; relative to: not given; direction: higher = stronger binding
# Target: Histone acetyltransferase KAT6A, winged helix 2, GST fusion (KAT6A, Homo sapiens, UniProt Q92794, residues 85-181)
# Setting: 8-mer, flanks averaged, mean of 2 arrays, mostly near background
# Residues (chain): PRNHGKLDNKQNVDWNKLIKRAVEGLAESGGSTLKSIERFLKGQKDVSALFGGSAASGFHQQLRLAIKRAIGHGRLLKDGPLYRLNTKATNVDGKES
Oligonucleotide,E-score
CATTGAAA,0.114
CAAGGCGG,0.0394
CTATTTGC,-0.128
GAGGAAGA,-0.0201
ACAAACCT,-0.103
ATGTTGGA,0.0503
CTTCACTA,0.0294
CGGCAGTA,0.0105
AGCGGTGG,-0.0207
ACCAGAGG,-0.114
GAGGACCA,-0.048
CGCTCCAC,0.0285
AGTCTCTG,0.00741
GGAAGTCA,-0.093
CACACTCA,0.131
GCCTTGAA,-0.00804
AGGTAAAG,-0.0995
ATCCATTG,-0.121
ATCGCTCC,-0.0295
AAAACGGT,-0.102
AAGTAAGT,-0.143
ATAGGCCC,-0.196
AAACATCG,-0.0748

# Series 4 — technique: RNA Bind-n-Seq; form: RNA; matrix: in vitro; tested at: 1 µM; setting: whole 134-nt RNA, ends assumed; added: 150 mM KCl; relative to: input library; direction: higher = stronger binding
# Target: Ras GTPase-activating protein-binding protein 1, C-terminal RGG region (G3BP1, Homo sapiens, UniProt Q13283)
# Chain of UniProt Q13283 (whole entry, looked up): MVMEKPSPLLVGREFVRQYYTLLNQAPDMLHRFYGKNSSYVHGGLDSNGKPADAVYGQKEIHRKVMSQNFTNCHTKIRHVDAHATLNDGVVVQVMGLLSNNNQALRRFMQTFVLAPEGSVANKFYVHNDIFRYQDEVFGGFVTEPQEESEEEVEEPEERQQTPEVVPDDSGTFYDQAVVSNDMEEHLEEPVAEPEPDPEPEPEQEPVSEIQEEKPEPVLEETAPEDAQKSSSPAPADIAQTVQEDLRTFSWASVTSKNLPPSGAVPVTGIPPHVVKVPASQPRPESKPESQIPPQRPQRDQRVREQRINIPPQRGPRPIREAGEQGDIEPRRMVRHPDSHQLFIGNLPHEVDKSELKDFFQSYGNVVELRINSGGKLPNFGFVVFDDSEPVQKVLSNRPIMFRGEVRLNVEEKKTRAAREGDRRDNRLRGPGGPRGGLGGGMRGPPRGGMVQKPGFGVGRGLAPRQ
# Shared flanks, not repeated: GGGAGUUCUACAGUCCGACGAUC … UGGAAUUCUCGGGUGUCAAGG
Oligonucleotide,log2 enrichment
CCUGUGCUACACAUCGUAUGUACCGAAUCGGGAAAAAAGGGGAAAAAAGGGAAAAAAGGGGAAAGUAUUAUGUUACGCCGUUCGGAUCUG,-1.31
UAACUUUAGAGGAGGAUCUGAUGGAUAUGGCAGUGGACGUGGAUUUGGGGAUGGCUAUAAUCGGUAUGGAGGAGGACCUGGAGGUGGCAA,-0.6
AAGUCCUGUGCUACACAUCGUAUGUACCGAAUCGGGCCCGGGGCCCGGGGCCCGGGGAAAGUAUUAUGUUACGCCGUUCGGAUCUGCACU,-2.12
GUCCUGUGCUACACAUCGUAUGUACCGAAUCAAACCCCCAAACCCAAAUUUUUUUAAAAAAGUAUUAUGUUACGCCGUUCGGAUCUGCAC,-0.77
CACAGACAACACGCCCCCACACAGACACAGAGGGAAGGGGUUGGGAUGGGGACAGGGUGCACAGCAGGGCGGGGUAGGACCCCAGCCCCU,-0.41
UAACUUUAGAGGAGGAUCUGAUGGAUAUCGCAGUGGACGUGGAUUUGGGGAUGGCUAUAAUGGGUAUGGAGGAGGACCUGGAGGUGGCAA,-1.38
CUGUGCUACACAUCGUAUGUACCGAAUCGGGGAAAAAAAGGGGUUUGGGGAAAAAAAGGGGAAAGUAUUAUGUUACGCCGUUCGGAUCUG,0.0246
CACAGACAACACGCACCCACACAGACACAGAGGGAAGGGGUUGGGAUGGGGACAGGGUGCACAGCAGGGCGGGGUAGGACCCCAAACCCU,-0.289
GUCCUGUGCUACACAUCGUAUGUACCGAAUCGGGUUUUUGGGUUUUUGGUUUUUGGGGAAAGUAUUAUGUUACGCCGUUCGGAUCUGCAC,-0.872

# A few entries again (series 2):
Oligonucleotide,RBNS enrichment (R)
GAGAAAGGAAAUGGGCUAUUGCCAAAGGACAGGUGGCGUUAGAUGGCUGUGAGGGUGACCUGGUGAGGGAAGGGUUGGAAUGAGCUGCUGCAGGAGGCCAAGGGAUGCCU,2.24
UCAGAUGCAGGUGGUACCCACACGACCAGAGUGAUCAAUAGGAAUUUUCUUGGUGUUCCUUUCUUCCAGCACAGUGCAAGAUAGAGUUGCUGUUGAUGCCAUAUGUUUAG,0.914
CCAGGUCACGUGUAGGACGUGCUUAUCCAGUUUUUUCCCCCUUUACCUGCAUAGUUGCUACAUACAUGUUUCUCACUGUAAAAGGCUGCCGCUGGGUGGCAGAAGCCAAA,0.469
CCUUGCACUACCAGAAGAUUCAUACACUUUUGAGACUCCAGUGAGACGCUGUUUUCACCCCUUCCUCCUCCUAGCCUCUCUCCCAAAAAGUAAAACACAAUGCUGAAGAA,0.88
CAUUUCUUUUAUUGUUUUAUGUGCCAAACCACGAAGUGCAUUGGGCUUCAAUCUCUGAACACUGUAGACCCAUUAGAAGACUGUUCCGAUUGUUACAAAUUGUAGUGCCU,0.386
GCUUUAAAGGUGGUAGUGAUUUUUAUUUUGGAAGAAUCAUGUUACCUUUUUGUUAAAUAAAAUUUGUACUCAAAUGAUGAUGUCACUGUUUUUAAUGUGCAGGUAUUGAA,0.556
UUUCUAUGUAUAAUGUUUUAUACACUUUUUAACUGGUUGCACUACCCAUGAGGAAUUCGUGGAAUGGCUACUGCUGACUAACAUGAUGCACAUAACCAAAUGGGGGCCAA,0.516
AUGACAGGACCUGGAAUGUACUGGCUGGGGUAGGCCUCAGUGAGUCGGCCGGUCAGGGCCCGCAGCCUCGCCCCAUCCACUCCGGUGCCUCCAUUUAGCUGGCCAAUCAG,0.36
